Measurements collected from several papers.
Each line is one published result; not all experiments were run side by side. ± gives the spread as reported.
APP: Amyloid-beta precursor protein (APP, Homo sapiens, UniProt P05067)
UniProt P05067, sequence (whole entry, looked up): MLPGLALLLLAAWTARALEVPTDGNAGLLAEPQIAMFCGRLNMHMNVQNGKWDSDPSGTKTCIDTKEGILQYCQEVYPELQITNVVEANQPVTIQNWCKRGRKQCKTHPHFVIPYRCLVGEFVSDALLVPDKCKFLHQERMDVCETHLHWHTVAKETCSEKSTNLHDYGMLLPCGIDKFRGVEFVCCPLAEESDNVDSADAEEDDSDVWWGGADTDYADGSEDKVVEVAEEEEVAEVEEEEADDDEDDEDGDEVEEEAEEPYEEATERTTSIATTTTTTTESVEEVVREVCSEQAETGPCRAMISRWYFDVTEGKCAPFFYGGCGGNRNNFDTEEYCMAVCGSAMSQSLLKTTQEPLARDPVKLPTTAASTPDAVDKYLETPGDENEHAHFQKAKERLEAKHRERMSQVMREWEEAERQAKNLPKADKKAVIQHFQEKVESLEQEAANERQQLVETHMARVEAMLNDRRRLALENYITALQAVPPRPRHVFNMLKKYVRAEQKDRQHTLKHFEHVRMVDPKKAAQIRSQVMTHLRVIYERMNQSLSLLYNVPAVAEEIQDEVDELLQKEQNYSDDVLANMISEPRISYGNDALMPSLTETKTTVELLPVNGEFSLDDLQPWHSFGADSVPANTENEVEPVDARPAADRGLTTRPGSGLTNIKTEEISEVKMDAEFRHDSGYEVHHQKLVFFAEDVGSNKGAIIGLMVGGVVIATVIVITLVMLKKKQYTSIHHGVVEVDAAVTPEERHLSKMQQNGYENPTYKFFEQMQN
MAPK14: Mitogen-activated protein kinase 14 (MAPK14, Homo sapiens, UniProt Q16539)
Tripartite terminase subunit 3 C-terminal nuclease domain: Tripartite terminase subunit 3, C-terminal nuclease domain (Human betaherpesvirus 5, UniProt P16732)
UniProt P06935, sequence (whole entry, looked up): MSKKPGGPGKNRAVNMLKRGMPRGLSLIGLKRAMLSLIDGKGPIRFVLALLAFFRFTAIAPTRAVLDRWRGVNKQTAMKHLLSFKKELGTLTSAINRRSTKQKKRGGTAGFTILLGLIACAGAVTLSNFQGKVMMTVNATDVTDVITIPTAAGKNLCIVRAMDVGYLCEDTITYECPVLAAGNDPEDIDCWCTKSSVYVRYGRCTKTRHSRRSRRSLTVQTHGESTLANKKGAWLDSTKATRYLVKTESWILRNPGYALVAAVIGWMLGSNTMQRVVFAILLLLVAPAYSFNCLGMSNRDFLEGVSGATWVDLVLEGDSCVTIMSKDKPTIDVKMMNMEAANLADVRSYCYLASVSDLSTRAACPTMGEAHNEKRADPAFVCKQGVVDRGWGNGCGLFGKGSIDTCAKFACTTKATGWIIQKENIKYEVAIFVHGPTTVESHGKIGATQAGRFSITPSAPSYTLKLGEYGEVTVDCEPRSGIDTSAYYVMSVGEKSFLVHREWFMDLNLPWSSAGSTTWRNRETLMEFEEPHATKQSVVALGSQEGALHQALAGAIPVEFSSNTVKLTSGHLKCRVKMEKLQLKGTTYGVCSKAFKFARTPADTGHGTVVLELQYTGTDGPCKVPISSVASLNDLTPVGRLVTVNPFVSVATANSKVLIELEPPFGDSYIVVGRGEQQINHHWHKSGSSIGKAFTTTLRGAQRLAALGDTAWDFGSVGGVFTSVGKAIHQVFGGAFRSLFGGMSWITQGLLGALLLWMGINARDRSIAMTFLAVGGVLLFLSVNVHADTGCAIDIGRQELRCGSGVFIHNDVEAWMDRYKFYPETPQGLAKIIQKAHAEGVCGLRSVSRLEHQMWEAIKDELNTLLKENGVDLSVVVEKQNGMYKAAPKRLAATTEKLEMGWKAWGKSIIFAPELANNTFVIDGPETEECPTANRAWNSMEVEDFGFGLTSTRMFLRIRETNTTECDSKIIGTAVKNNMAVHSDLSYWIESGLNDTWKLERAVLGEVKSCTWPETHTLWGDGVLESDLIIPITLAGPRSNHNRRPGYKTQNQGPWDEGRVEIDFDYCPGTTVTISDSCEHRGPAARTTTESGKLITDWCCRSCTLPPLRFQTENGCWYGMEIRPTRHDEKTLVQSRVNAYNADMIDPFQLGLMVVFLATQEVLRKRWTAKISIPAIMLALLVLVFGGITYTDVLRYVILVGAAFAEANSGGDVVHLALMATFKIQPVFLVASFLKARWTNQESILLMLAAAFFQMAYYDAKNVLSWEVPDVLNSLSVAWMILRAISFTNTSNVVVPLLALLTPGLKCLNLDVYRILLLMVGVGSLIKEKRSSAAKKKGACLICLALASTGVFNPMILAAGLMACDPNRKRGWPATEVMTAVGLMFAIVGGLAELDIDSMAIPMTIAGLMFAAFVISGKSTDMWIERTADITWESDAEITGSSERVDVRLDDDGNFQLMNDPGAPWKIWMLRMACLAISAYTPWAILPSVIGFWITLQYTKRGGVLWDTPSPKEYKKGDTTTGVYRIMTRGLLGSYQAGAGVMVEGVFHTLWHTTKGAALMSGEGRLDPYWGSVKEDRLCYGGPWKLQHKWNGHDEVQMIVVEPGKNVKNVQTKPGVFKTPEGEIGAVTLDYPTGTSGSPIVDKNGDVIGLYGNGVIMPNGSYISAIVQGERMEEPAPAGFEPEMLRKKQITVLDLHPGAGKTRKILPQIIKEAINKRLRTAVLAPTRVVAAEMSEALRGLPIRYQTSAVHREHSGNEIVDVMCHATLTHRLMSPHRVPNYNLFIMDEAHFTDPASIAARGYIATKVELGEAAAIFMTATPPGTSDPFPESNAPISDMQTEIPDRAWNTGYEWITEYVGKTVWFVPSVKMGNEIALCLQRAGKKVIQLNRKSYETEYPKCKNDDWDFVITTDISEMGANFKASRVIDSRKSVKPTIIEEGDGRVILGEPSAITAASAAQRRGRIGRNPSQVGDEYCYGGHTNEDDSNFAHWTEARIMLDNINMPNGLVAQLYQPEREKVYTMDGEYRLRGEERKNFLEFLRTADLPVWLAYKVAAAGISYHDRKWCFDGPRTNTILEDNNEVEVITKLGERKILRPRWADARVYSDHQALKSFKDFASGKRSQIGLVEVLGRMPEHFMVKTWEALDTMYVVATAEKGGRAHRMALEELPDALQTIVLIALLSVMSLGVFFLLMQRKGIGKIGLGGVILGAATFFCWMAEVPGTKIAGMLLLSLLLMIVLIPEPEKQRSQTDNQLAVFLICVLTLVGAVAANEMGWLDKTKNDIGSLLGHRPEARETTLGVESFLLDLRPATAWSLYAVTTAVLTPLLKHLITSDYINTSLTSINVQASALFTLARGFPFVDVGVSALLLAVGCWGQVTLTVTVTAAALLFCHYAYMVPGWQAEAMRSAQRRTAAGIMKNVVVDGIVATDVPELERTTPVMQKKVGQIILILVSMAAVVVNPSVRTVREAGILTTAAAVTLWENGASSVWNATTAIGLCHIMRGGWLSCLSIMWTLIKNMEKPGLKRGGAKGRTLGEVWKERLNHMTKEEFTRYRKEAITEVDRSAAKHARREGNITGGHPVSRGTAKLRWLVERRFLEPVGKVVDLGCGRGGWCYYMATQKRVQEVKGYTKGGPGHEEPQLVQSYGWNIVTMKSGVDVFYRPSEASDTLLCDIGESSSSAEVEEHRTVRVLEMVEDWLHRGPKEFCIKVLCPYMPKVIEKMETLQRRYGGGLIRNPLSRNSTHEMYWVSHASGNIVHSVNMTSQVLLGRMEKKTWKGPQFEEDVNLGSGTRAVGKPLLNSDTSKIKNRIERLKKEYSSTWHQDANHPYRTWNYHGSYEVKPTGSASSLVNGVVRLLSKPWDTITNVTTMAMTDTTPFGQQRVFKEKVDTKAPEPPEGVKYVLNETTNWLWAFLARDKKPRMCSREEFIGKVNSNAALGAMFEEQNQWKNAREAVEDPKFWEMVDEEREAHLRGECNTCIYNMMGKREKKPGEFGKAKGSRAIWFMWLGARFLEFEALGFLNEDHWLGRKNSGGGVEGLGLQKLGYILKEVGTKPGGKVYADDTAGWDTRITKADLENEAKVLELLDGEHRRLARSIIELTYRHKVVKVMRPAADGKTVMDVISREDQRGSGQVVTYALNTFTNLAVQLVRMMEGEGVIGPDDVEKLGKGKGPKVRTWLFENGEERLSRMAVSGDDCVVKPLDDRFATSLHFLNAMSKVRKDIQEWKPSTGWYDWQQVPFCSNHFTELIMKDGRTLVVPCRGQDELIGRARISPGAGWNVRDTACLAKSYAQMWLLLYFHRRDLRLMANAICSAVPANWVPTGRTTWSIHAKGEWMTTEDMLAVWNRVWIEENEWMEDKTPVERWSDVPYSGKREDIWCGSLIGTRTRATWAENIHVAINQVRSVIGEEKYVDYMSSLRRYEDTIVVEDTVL
UniProt P16732, sequence (whole entry, looked up): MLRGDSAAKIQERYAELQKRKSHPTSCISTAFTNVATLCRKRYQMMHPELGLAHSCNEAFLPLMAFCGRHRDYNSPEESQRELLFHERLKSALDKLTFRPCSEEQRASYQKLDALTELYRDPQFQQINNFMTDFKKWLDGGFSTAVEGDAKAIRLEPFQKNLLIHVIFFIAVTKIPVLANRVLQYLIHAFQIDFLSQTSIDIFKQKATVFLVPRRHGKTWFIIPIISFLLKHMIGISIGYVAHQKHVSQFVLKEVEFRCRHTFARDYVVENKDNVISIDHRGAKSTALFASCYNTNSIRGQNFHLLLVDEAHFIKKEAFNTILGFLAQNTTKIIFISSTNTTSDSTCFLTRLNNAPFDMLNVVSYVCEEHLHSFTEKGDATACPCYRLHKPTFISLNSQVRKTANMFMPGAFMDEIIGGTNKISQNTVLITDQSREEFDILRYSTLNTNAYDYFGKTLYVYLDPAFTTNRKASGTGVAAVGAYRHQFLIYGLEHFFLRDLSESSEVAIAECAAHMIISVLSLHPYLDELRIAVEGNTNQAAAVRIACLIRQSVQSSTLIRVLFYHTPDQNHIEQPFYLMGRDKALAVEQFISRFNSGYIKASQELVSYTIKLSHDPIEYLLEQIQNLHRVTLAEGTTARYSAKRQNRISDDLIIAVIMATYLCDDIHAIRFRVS

SMILES | target | assay | system | conditions | inhibition
O=c1ccc2ccccc2o1 | PDE4D (Homo sapiens, UniProt Q08499) | enzyme activity | – | 10 µM, SafetyScreen44 | 7.36%
OB1OCc2cc(F)ccc21 | Genome polyprotein, NS2B-NS3 protease (West Nile virus, UniProt P06935) | enzyme activity, FRET | – | 50 µM, with: substrate 50 µM | ≤ 10%
Nc1ncnc2c1ncn2[C@@H]1O[C@H](C[C@@H](N)CC[C@H](N)C(=O)O)[C@@H](O)[C@H]1O | DNA adenine methyltransferase CamA (Clostridioides difficile, UniProt Q183J3) | – | – | concentration not given | > 50%
CC(=O)NC1C[C@](OC2C(O)[C@H](Oc3ccc([N+](=O)[O-])cc3)OC(CO)[C@@H]2O)(C(=O)O)OC([C@H](O)[C@H](O)CO)[C@@H]1NC(C)=O (some centres unmarked) | Sialidase A (nanA, Streptococcus pneumoniae, UniProt P62575) | – | – | 8 µM, pH 6 | 10 ± 2.3%
O=C(Nc1ccccc1)Nc1ccc2c(c1)B(O)OC2 | Genome polyprotein, NS2B-NS3 protease (dengue virus type 2, UniProt P29990) | enzyme activity, FRET | dengue virus serotype 2 | 50 µM, with: substrate 50 µM | ≤ 10%
Nc1c2c(nc3c1C(c1cccc([N+](=O)[O-])c1)c1ccc(OS(=O)(=O)c4ccc(F)cc4)cc1O3)CCCC2 (centres unmarked) | APP | Aβ42 self-aggregation, inhibitor, thioflavin T fluorescence | – | 0.1 µM | 7.3%
Cc1ncc(C)n2nc(/C=C/c3nc(N4CCCC4)cc(N4CCOCC4)n3)nc12 | GABA-A receptor; GABA-A site (alpha1/beta2 interface), with gamma-2 subunit (Homo sapiens, UniProt P14867+P47870) | radioligand binding | GABA-A receptor alpha1beta2gamma2 GABA site | 10 µM | -9%
COc1cccc(COc2cccc(C(=O)Nc3ccc4c(c3)B(O)OC4)c2)c1 | Genome polyprotein, NS2B-NS3 protease (West Nile virus, UniProt P06935) | enzyme activity, FRET | – | 50 µM, with: substrate 50 µM | 16 ± 3%
CN(C(=O)n1cnc(-c2ccc[n+]([O-])c2)c1)C1CCCCC1 | MC3R (Homo sapiens, UniProt P41968) | radioligand binding | – | 10 µM | 0%
FC(F)(F)c1cccc(Nc2nc(NCCOc3ccccc3)nc3[nH]cnc23)c1 | MAPK14 | kinase activity, Z'-LYTE | – | 5 µM | 3%
O=C(Nc1cnccc1Cl)N1CCN(Cc2ccc3c(c2)OC(F)(F)O3)CC1 | RXRA (Homo sapiens, UniProt P19793) | radioligand binding, inhibitor | – | 50 µM, human, with: [3H]9-cis-retinoic acid | 11%
COc1cc(Nc2ncc(F)c(Nc3ccc4c(n3)NC(=O)C(C)(C)O4)n2)cc(OC)c1OC | MAPK14 | KINOMEscan | – | 10 µM, p38-alpha | 5%
C=C(C)[C@H]1CN[C@H](C(=O)O)[C@H]1CC(=O)O | kainate glutamate receptor (rat) | radioligand binding | rat brain | 1×10 µM | 100%
CCN1C[C@]2(COC(=O)c3ccccc3N3C(=O)C[C@H](C)C3=O)CC[C@H](OC)[C@@]34[C@@H]5C[C@H]6[C@H](OC)[C@@H]5[C@](O)(C[C@@H]6OC)[C@](O)([C@@H](OC)[C@H]23)[C@@H]14 | Neuronal acetylcholine receptor; alpha3/beta4 (Homo sapiens, UniProt P30926+P32297) | ion current, antagonist, whole-cell patch clamp | HEK293T cells | concentration not given | 89.51 ± 0.01%
CN1CCN(c2cc(-c3ccncc3)c(-c3ccc4ccccc4c3)nn2)CC1 | P2Y purinoceptor 4 (P2RY4, Homo sapiens, UniProt P51582) | antagonist, FLIPR | – | 10 µM | 0.1%
O=C(Nc1ccc2c(c1)B(O)OC2)c1cccc(Oc2ccccc2)c1 | Genome polyprotein, NS2B-NS3 protease (West Nile virus, UniProt P06935) | enzyme activity, FRET | – | 50 µM, with: substrate 50 µM | ≤ 10%

SMILES | target | assay | system | conditions | inhibition
O=c1cc(-c2ccccc2)oc2c1ccc1occc12 | CDK7 (Homo sapiens, UniProt P50613) | enzyme activity, inhibitor | – | 10 µM | 54%
O=C(Nc1ccc2c(c1)B(O)OC2)c1ccc(N2CCOCC2)cc1 | Genome polyprotein, NS2B-NS3 protease (dengue virus type 2, UniProt P29990) | enzyme activity, FRET | dengue virus serotype 2 | 50 µM, with: substrate 50 µM | ≤ 10%
O=c1[nH]c2cc(-c3ccc(Cl)cc3)ccc2c(=O)n1O | Tripartite terminase subunit 3 C-terminal nuclease domain | endonuclease activity, ELISA | – | 20 µM, with: dsDNA | 86%
Nc1c2c(nc3c1C(c1cccc([N+](=O)[O-])c1)c1ccc(OCC(=O)c4ccc(Cl)cc4)cc1O3)CCCC2 (centres unmarked) | APP | Aβ42 self-aggregation, inhibitor, thioflavin T fluorescence | – | 100 µM | 87%
C[C@H](C(=O)N[C@H]1COc2ccccc2[C@@H]1S(C)(=O)=O)c1ccc(F)cc1 | Na+/K+-ATPase, pig heart | enzyme activity | – | 10 µM, Eurofins selectivity panel | -4%
O=C1c2ccccc2C(c2ccccc2)C(=O)N1OCc1ccccc1 (centres unmarked) | Tripartite terminase subunit 3 C-terminal nuclease domain | endonuclease activity, ELISA | – | 20 µM, with: dsDNA | 5.1%
Nc1c2c(nc3c1C(c1ccc(Cl)c(Cl)c1)c1ccc(OCC(=O)c4ccccc4)cc1O3)CCCC2 (centres unmarked) | APP | Aβ42 self-aggregation, inhibitor, thioflavin T fluorescence | – | 0.01 µM | 11%
Nc1ccncc1 | Glutamate receptor 2 (Homo sapiens, UniProt P42262) | ion current, negative allosteric modulator, automated patch clamp | HEK293 | 3 µM | 12%
COc1ccc(N2C(=O)N(c3c(C)cccc3Cl)Cc3cnc(Nc4ccc(C5CCN(C)CC5)cc4OC)nc32)nc1 | BRAF (Homo sapiens, UniProt P15056) | kinase activity | – | 0.5 µM | 16%
Nc1ncnc2c1ncn2[C@@H]1O[C@H](C[C@@H](N)CC[C@H](N)C(=O)O)[C@@H](O)[C@H]1O | Genome polyprotein, NS5 methyltransferase domain (Zika virus, UniProt Q32ZE1) | NS5 enzyme activity, inhibitor | – | 25 µM | 87.3%
O=C(Nc1cccc(C(=O)Nc2ccc3c(c2)B(O)OC3)c1)c1ccccc1 | Genome polyprotein, NS2B-NS3 protease (dengue virus type 2, UniProt P29990) | enzyme activity, FRET | dengue virus serotype 2 | 50 µM, with: substrate 50 µM | 35 ± 3%
C[C@H]1N=C(c2ccccc2F)c2cc(Br)ccc2-n2cnc(C(=O)O)c21 | sigma receptor 1 | binding | – | 10 µM | 4.5 ± 7.3%
O=C(Nc1ccc2c(c1)B(O)OC2)c1ccc(OCc2ccc(Cl)cc2)cc1 | Genome polyprotein, NS2B-NS3 protease (West Nile virus, UniProt P06935) | enzyme activity, FRET | – | 50 µM, with: substrate 50 µM | ≤ 10%
Cc1sc2[nH]c(=O)n(O)c(=O)c2c1C | Tripartite terminase subunit 3 C-terminal nuclease domain | endonuclease activity, ELISA | – | 20 µM, with: dsDNA | 100%
O=C(Nc1cccnn1)N1CCC(=Cc2cccc(Oc3ccc(C(F)(F)F)cn3)c2)CC1 | PTGIR (Homo sapiens, UniProt P43119) | radioligand binding, inhibitor | – | 10 µM, human, with: [3H]iloprost | 12%
Nc1ccc2c(c1)B(O)OC2 | Genome polyprotein, NS2B-NS3 protease (West Nile virus, UniProt P06935) | enzyme activity, FRET | – | 50 µM, with: substrate 50 µM | ≤ 10%

For quick reference, copied from above:
SMILES | target | assay | system | conditions | inhibition
O=c1cc(-c2ccccc2)oc2c1ccc1occc12 | CDK7 (Homo sapiens, UniProt P50613) | enzyme activity, inhibitor | – | 10 µM | 54%
C[C@H]1N=C(c2ccccc2F)c2cc(Br)ccc2-n2cnc(C(=O)O)c21 | sigma receptor 1 | binding | – | 10 µM | 4.5 ± 7.3%
